Published values pooled from the literature.
Protocols differ between the studies behind these lines. “And” joins repeats or separate records; there may be more than shown. ± gives the spread as reported.

Structure (SMILES) | tested on | assay | system | setting | scale | quantity | result
CCn1cc(-c2cc(Cn3ccnc3)cc3c2CCN([C@H](c2cc(OC)ccn2)C2CC2)C3=O)c(C(F)(F)F)n1 | OVK18 | cell growth, inhibitor |  | 120 h |  | EC50 | 4.17 µM
O=C(C[C@@H](C(F)F)n1ccc(F)n1)N1CCC(O)(Cn2cnc3c(cnn3-c3ccc(F)cc3)c2=O)CC1 | CHP-212 resistant subline R3 | annexin V/PI flow cytometry |  | 1 µM, 48 h |  | apoptotic cells | 15.1% and 8.99% and 11.8%
CCc1nnc(NS(=O)(=O)c2ccc(NC(=O)c3ccc(F)cc3)cc2)s1 | Cyclin-dependent kinase 2, with cyclin A (CDK2, Homo sapiens, UniProt P24941) |  |  |  |  | Kd | > 100 µM
CC(C)[C@H](NC(=O)[C@H](Cc1ccc(O)cc1)NC(=O)[C@H](Cc1ccc(O)cc1)NC(=O)[C@@H]1CCCN1C(=O)[C@H](CCC(=O)O)NC(=O)[C@H](CCC(=O)O)NC(=O)[C@H](Cc1c[nH]c2ccccc12)NC(=O)[C@@H]1CCCN1C(=O)[C@@H](NC(=O)[C@H](CCC(N)=O)NC(=O)c1ccc2c(c1)C(=O)OC21c2ccc(O)cc2Oc2cc(O)ccc21)C(C)C)C(=O)N[C@H](C(=O)N[C@@H](CCCCN)C(=O)N[C@@H](CCCCN)C(=O)N[C@@H](CO)C(=O)N[C@@H](CO)C(=O)NCC(=O)NCC(N)=O)C(C)C |  |  | human, plasma | intravenous infusion, 400 mg, predose 0 min, day 1 |  | total plasma concentration | not detected
Cn1cc(Nc2nccc(-c3ccc4c(c3)CN(C3COC3)CC[C@H]4NC(=O)c3cn(C(C)(C)C)nn3)n2)cn1 | mouse splenic B cells | measured: UVA-Induced MAPK signalling |  | 30 mg/kg, IgD-activated in vivo | relative to: vehicle, direction not given | pathway activation z-score | 3
Cn1cc(-c2ccc(-c3cncc(Cl)c3N3CCC4(CCNC4=O)CC3)cc2)cn1 | COLO 205 | gene expression, microarray, measured: SLC2A4 (GLUT4) mRNA |  | concentration not given, 6 h | relative to: untreated cells | log2 fold change | -2.54
[Cl-].[Cl-].[Os+2].c1cnc2c(c1)ccc1cccnc12.c1cnc2c(c1)ccc1cccnc12.c1cnc2c(c1)ccc1cccnc12 | SK-MEL-28 |  |  | red light, 1% O2 hypoxia |  | TGI | 172 µM
NC(=O)c1cnc2[nH]ccc2c1N[C@@H]1[C@@H]2CC3C[C@H]1C[C@@](O)(C3)C2 |  | CD8+ central memory T cells, flow cytometry | Japanese humans, peripheral blood | 20 mg single dose | relative to: baseline | percent change | -0.32%
O=C(/C=C/C=C/C=C/C1CCCCC1)NC1=C[C@@](O)(/C=C/C=C/C=C/C(=O)NC2=C(O)CCC2=O)[C@@H]2O[C@@H]2C1=O | KYSE-510 | cell growth, CellTiter-Glo |  | 78 h |  | GI50 | 19.1 µM
COc1cnc2cccc(N3CCc4c(cc(Cn5ccnc5C)cc4-c4cn(C)nc4C(F)(F)F)C3=O)c2c1 | MOLM-13 | cell growth, inhibitor |  | 120 h |  | EC50 | 0.49 µM
CC/C(=N\NC(=O)NCc1cccc(O)c1)c1ccc(O)c(C)c1O | SK-OV-3 | Western blot, measured: phospho-YAP |  | 1 µM, 1 h, 2D culture | relative to: total YAP | phosphorylated protein ratio | 0.82 ± 0.64
CCn1cc(-c2cc(Cn3ccoc3=N)cc3c2CCN([C@@H](C)c2cc(OC)ccn2)C3=O)c(C(F)(F)F)n1 | NCI-H520 | cell growth, inhibitor |  | 120 h |  | EC50 | 1.27 µM
c1csc(CNc2cc[nH]n2)c1 | human peripheral blood lymphocytes (female) |  |  | 2160 µg/mL, 4 h, repeat, together with: without S9 |  | cells with numerical aberrations | 0.5%
CNCc1ccc(-c2[nH]c3cc(F)cc4c3c2CCNC4=O)cc1 |  |  | human patients | oral, 600 mg twice daily, grade 5 |  | diarrhoea incidence | 0%
Cc1cnc(NC2CCOCC2)nc1-n1cnc(C(=O)NC(CN)c2cc(F)cc(Cl)c2)c1 (stereo not drawn) | MINO | flow cytometry |  | 1 µM, 72 h |  | G1 phase cells | 47%
CCc1ccc(NC(=O)Nc2c[nH]c3ccccc23)cc1 | THP1-Dual | TBK1 phosphorylation, inhibitor, Western blot densitometry |  | 20 µM, together with: poly(I:C) |  | phospho-TBK1/TBK1 ratio | 0.972 and 1.32 and 0.936
CC(C)C[C@H](NC(=O)C[C@H](O)[C@H](CC(C)C)NC(=O)[C@H](Cc1c[nH]cn1)NC(=O)CNC(=O)[C@@H](NC(=O)[C@H](C)NC(=O)[C@H](Cc1c[nH]c2ccccc12)NC(=O)[C@H](CCC(N)=O)NC(=O)[C@@H](Cc1ccccc1)NC(=O)COCCOCCNC(=O)CCC(C(=O)O)N1CCN(CC(=O)O)CCN(CC(=O)O)CCN(CC(=O)O)CC1)C(C)C)C(N)=O (stereo partly drawn) [lutetium-177 labelled] |  |  | BALB/c nu/nu mice, bladder | intravenous, 750 pmol, 1 h, together with: PA 300 µg |  | tissue uptake | 51 ± 26 %ID/g
O=P(O)(O)C(O)(Cn1ccnc1)P(=O)(O)O | hFOB 1.19 | AlamarBlue |  | 15 µM, 72 h | relative to: control | viability | 99 ± 2%

Repeated from above:
Structure (SMILES) | tested on | assay | system | setting | scale | quantity | result
O=C(C[C@@H](C(F)F)n1ccc(F)n1)N1CCC(O)(Cn2cnc3c(cnn3-c3ccc(F)cc3)c2=O)CC1 | CHP-212 resistant subline R3 | annexin V/PI flow cytometry |  | 1 µM, 48 h |  | apoptotic cells | 15.1% and 8.99% and 11.8%
CCc1nnc(NS(=O)(=O)c2ccc(NC(=O)c3ccc(F)cc3)cc2)s1 | Cyclin-dependent kinase 2, with cyclin A (CDK2, Homo sapiens, UniProt P24941) |  |  |  |  | Kd | > 100 µM
